Assay results of several laboratories.
A part holds a random share of what one study measured.

Series 1
Target: RNA binding protein fox-1 homolog 2, RRM domain, GST-SBP tag (RBFOX2, Homo sapiens, UniProt O43251-10, residues 100-194)
Method: RNA Bind-n-Seq
Form: RNA
Sample: in vitro
Concentration: 365 nM
Notes: natural RNA segment, single round, ends assumed
Baseline: no-protein control
Reading: higher = stronger binding
For `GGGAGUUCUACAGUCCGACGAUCUUGUACAAAUAAGGGACUGAUGUUCUGUUUCUUGUAAUUAGAAAUAAACAUUAAUACAGUGUUCUUCUUUUCUAUUGCUGGUGAUAUCUGUUUCUAAUUUUAAAACACUGUGGAAUUCUCGGGUGCCAA`, “RBNS enrichment (R)” read 0.367.
For `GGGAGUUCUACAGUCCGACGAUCUCCAACUACUGCUGCAGCAUUUUGGUAAAAACCUGUAGCGAUUCGUUACACUGGGGUGAGAAGAGAUAAGAGAAAUGAAAGAGAAGAGAAAUGGGACAUCUAAUAGUCCCUGGAAUUCUCGGGUGCCAA`, “RBNS enrichment (R)” read 0.666.
`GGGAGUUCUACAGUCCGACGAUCGAUUUUCUCCCUUUUGUUUUGCUUUUAUUUUCAUGCUACUAACAUAUCUUCAGAAGGAAAUGGCAACUAGUAGAUCAGUAAAAUUACGAAAACGAUGCCUGCAAAAUUUGUGGAAUUCUCGGGUGCCAA` — result for “RBNS enrichment (R)”: 0.53.
`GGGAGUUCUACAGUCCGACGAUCUGAGCGUGGAUCUGAACACCACAGCCCCUGUACUUGGGUUGCCUCUUGUCCCUGAACUUCGUUGUACCAGUGCAUGGAGAGAAAAUUUUGUCCUCUUGUCUUAGAGUUGUUGGAAUUCUCGGGUGCCAA` — result for “RBNS enrichment (R)”: 1.14.
Under “RBNS enrichment (R)”, `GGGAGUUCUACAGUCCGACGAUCAUUCAUGCUUGAAGUAACCUUGCCGACAGUUGUGUGGCACAGACUCCCAGUACCAGCAAGGGGGCCGUAGGUAAUUGUGUGCUUUCUUAAAGAAGUGUAUGUUUUCUGAAUGGAAUUCUCGGGUGCCAA` is recorded as 0.764.
For `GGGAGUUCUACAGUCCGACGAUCAUUACUGAUGUGAUAUUCUGUUGCUUUACAGUUACAGUUGAUGUUUGGGGAUCGAUGUGCUCAGCCAAAUUUCCUGUUUGAAAUAUCAUGUUAAAUUAGAAUGAAUUUAUUGGAAUUCUCGGGUGCCAA`, “RBNS enrichment (R)” read 0.876.
`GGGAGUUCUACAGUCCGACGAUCGACAGGCAGCCAUUGAUGGGAGCAAAGCUUGCAGGUGCCUGGAGGUGGUCCCACCAUUGCCUGCAGAUGUCCUUCCUCUGUUCACAGUUAGGUUUAGUGAGCAUUUCAUGUGGAAUUCUCGGGUGCCAA` — result for “RBNS enrichment (R)”: 0.379.
`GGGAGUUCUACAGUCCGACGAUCUCUAAAUUUAUAUGUUGAAAUGCUACCUUUUUUAAAAUAAGAAACUAAAUAAAAUUAUUUUACUAUCGUGAUUUGUGUUUUUUUUUCCCACGUCUUCAUUUUUCUGUCAUUGGAAUUCUCGGGUGCCAA`: “RBNS enrichment (R)” 1.86.

Series 2
Cell line: HEK-293T/ACE2
Concentration: concentration not given
Time: 16 (unit not given)
Baseline: vehicle
The viability of `CC(=O)OCC(COC(C)=O)OC(C)=O` is reported as 100%.
With `CCOC(=O)[C@H](CCc1ccccc1)N[C@@H](C)C(=O)N1[C@H](C(=O)O)C[C@@H]2CCC[C@@H]21` the viability was 91.8%.
`CC(C)c1ccc2oc3nc(N)c(C(=O)O)cc3c(=O)c2c1` has a viability of 104%.

Series 3
Target: Replicase polyprotein 1ab, main protease (rep, Severe acute respiratory syndrome coronavirus 2, UniProt P0DTD1)
Read-out: enzyme activity
Action: inhibitor
Concentration: 20 µM
Notes: hit confirmation, no DTT
With `CC(C)Nc1cccnc1N1CCN(C(=O)c2cc3cc(NS(C)(=O)=O)ccc3[nH]2)CC1.CS(=O)(=O)O` the inhibition was 86.7%.
`CCOC(=S)SSC(=S)OCC` has an inhibition of 94.6%.
`O=C(O)C1=CC(=C(c2ccc(O)c(C(=O)O)c2)c2ccc(O)c(C(=O)O)c2)C=CC1=O` has an inhibition of 95.6%.
With `CCCCCCCCCCCCCCCCCC[S+](CCC)c1ccccc1C(=O)OCC` (centres unmarked) the inhibition was 74.6%.

Series 4
Target: Ras GTPase-activating protein-binding protein 1, full length (G3BP1, Homo sapiens, UniProt Q13283)
Sequence of UniProt Q13283 (whole entry, looked up): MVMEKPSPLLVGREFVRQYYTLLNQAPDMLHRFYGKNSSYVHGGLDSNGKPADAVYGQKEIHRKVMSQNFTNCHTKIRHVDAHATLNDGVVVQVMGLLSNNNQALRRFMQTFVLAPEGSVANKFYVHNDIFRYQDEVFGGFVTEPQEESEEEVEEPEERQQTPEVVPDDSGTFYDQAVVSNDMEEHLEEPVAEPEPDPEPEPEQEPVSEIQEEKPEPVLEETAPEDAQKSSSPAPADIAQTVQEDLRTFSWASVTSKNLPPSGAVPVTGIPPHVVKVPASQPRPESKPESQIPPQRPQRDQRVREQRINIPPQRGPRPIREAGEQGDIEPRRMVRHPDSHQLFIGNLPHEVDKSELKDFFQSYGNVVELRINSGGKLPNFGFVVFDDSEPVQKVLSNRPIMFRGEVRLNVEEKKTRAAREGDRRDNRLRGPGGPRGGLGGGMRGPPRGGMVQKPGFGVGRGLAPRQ
Method: RNA Bind-n-Seq
Form: RNA
Sample: in vitro
Concentration: 200 nM
Notes: whole 134-nt RNA, ends assumed
Together with: 150 mM LiCl
Baseline: input library
Reading: higher = stronger binding
Each molecule: 7-deaza-guanosine replaces G
With `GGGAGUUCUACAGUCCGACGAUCUGGCCCUGGUGGCAUGCGGGGAGGAAGAGGUGGCCUCAUGGAUCGUGGUGGUCCCGGUGGAACGUUCAGAGGUGGCCGUGGUGGAGACAGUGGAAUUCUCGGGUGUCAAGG` the log2 enrichment was 0.611.
`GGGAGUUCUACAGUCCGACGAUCAGGGAGGUGGAUUUUGUUUAUUUUUUUAGCUCAUUUCCAGGGGUGGGAAUUUUUUUUUAAUAUGUGUCAUGAAUAAAGUUGUUUUUGAAAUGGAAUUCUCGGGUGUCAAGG` has a log2 enrichment of 0.34.
`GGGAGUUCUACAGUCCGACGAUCUCCUGUGCUACACAUCGUAUGUACCGAAUCGGGGAAAAAAGGAAAAAAGGAAAAAAGGGAAAGUAUUAUGUUACGCCGUUCGGAUCUGCAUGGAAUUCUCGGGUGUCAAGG` has a log2 enrichment of 0.112.
With `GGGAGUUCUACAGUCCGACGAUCGUCCUGUGCUACACAUCGUAUGUACCGAAUCGGGGUUUUUGGGGUUUUUGGGUUUUUGGAAAGUAUUAUGUUACGCCGUUCGGAUCUGCAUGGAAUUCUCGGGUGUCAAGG` the log2 enrichment was -0.239.
`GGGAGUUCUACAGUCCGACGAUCCACAGACAACACGCACCCGCACAGACACAGAGGGAAGGGGUUGGGAUGGGGACAGGGUGCACAGCAGGGCGGGGUAGGACCCCAGCCCCUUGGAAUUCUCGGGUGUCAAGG` has a log2 enrichment of 0.217.
`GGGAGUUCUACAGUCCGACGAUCGCAGGAAGUAAAAACAAAUGGAAAUGCUUCGGAUAGUGGCAGGGGUGGGGGUUAAAAAGGAAAGGGUGGGAUGGGAGUGGGUAAAGAGUUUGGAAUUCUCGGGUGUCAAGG` has a log2 enrichment of 0.473.
`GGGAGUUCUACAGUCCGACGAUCUGGGAGGUGGAUUUUGUUUAUUUUUUUAGCUCAUUUCCAGGGGUGGGAAUUUUUUUUUAAUAUGUGUCAUGAAUAUAGUUGUUUUUGAAAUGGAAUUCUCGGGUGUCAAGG` gave a log2 enrichment of -0.257.
With `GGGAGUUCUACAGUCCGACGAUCGCAGGAAGUAAAAACAAAUGGAAAUGCUUCGGAUAGCGGCAGGGGUGGGGGUUGCUAAGGAAAGGGUGGGAUGGGAGUGGGUAAAGAGUUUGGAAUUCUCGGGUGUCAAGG` the log2 enrichment was 0.0242.

Series 5
Target: Replicase polyprotein 1ab, polymerase (rep, Severe acute respiratory syndrome coronavirus 2, UniProt P0DTD1)
Read-out: enzyme activity
Action: inhibitor
Concentration: 20 µM
With `O=C(Nc1cnn2ccc(N3CCC[C@@H]3c3cc(F)ccc3F)nc12)N1CC[C@H](O)C1` the inhibition was -2.57%.
For `CC1(C)CC(Oc2ccc(-c3ccc(-c4cn[nH]c4)cc3O)nn2)CC(C)(C)N1`, the inhibition was -1.13%.
For `CC(C)(N)CC12CC3CC(CC(C3)C1)C2`, the inhibition was -2.48%.
The inhibition of `O=C1CC[C@@]2(O)[C@H]3Cc4ccc(O)c5c4[C@@]2(CCN3CC2CC2)[C@H]1O5` is reported as -0.35%.
With `CNc1cc2[nH]c(=O)n(-c3ccc(NC(=O)NS(=O)(=O)c4ccc(Cl)s4)cc3)c(=O)c2cc1F` the inhibition was -12%.
`OC[C@H]1O[C@@H](O[C@@H]2[C@@H](CO)OC(O)(CO)[C@H]2O)[C@H](O)[C@@H](O)[C@H]1O` (mixture of isomers) has an inhibition of 23.1%.
`C[C@]12CCC(=O)C=C1CC[C@@H]1[C@@H]2[C@@H](O)C[C@]2(C)C(=O)CC[C@@H]12` has an inhibition of -0.26%.
The inhibition of `COc1cc(OC)c(NC(=O)Nc2cc(C)on2)cc1Cl` is reported as 1.27%.
`COC(=O)N[C@@H](C)CNc1nccc(-c2cn(C(C)C)nc2-c2cc(Cl)cc(NS(C)(=O)=O)c2F)n1` gave an inhibition of -1.32%.
The inhibition of `CCCCCCCCCCCCCCCCn1cc[n+](Cc2ccccc2)c1C` is reported as -2.41%.
`CC(C)CCC[C@@H](C)[C@H]1CC[C@H]2[C@@H]3CCC4=CC(=NO)CC[C@]4(C)[C@H]3CC[C@]12C` has an inhibition of 1.27%.
`NS(=O)(=O)c1ccc(-n2nc(C(F)(F)F)cc2-c2ccc(Cl)cc2)cc1` gave an inhibition of -2.63%.
`COc1ccc(CCN)cc1OC` has an inhibition of -1.01%.
`O=c1c2ccccc2oc2ccccc12` has an inhibition of -10.7%.
For `O=C(Nc1nc(-c2cc(Cl)cs2)c(N2CCN(C3CCCCC3)CC2)s1)c1cnc(N2CCC(C(=O)O)CC2)c(Cl)c1`, the inhibition was 1.2%.
For `Cc1cc(Nc2nc(N[C@@H](C)c3ccc(F)cc3)c(C#N)cc2F)n[nH]1`, the inhibition was -1.72%.
With `Nc1nc2c(c(N3CCNCC3)n1)CCC1=C2[C@H]2CCCC[C@H]2O1` the inhibition was 0.93%.
With `Cc1ccccc1C(=O)Nc1ccc(C(=O)N2CCCC(N(C)C)c3ccccc32)cc1` (centres unmarked) the inhibition was -3.7%.
`COc1ccc2cc(-c3cc(-c4cc(Cl)cc(Cl)c4)nn3[C@@H](C)c3ccc(C(=O)NCCC(=O)O)cc3)ccc2c1` gave an inhibition of -8.81%.
`C[C@]12CC[C@@H]3c4ccc(OS(=O)(=O)O)cc4CC[C@H]3[C@@H]1CCC2=O` has an inhibition of -8.05%.
For `CCCCC/C=C\C/C=C\C/C=C\C/C=C\CCCC(=O)Nc1ccc(O)cc1`, the inhibition was 5.37%.
For `CC(C)Cc1ccc([C@H](C)C(=O)O)cc1`, the inhibition was -0.8%.
With `CC1=C(O)C(=O)[C@@H]2O[C@@H]2C1=O` the inhibition was 2.01%.
`COc1ccccc1OC(=O)c1ccccc1OC(C)=O` gave an inhibition of -18.9%.
With `N[C@@H](Cn1oc(=O)[nH]c1=O)C(=O)O` the inhibition was -0.77%.

Series 6
Target: Interferon regulatory factor 7, full length, phosphomimetic (IRF7, Homo sapiens, UniProt Q92985, residues 1-503, S101K/S471D/S472D/S475D/S476D/S477D/S483D/S484D/S487D)
Sequence of UniProt Q92985 (whole entry, unmodified, looked up): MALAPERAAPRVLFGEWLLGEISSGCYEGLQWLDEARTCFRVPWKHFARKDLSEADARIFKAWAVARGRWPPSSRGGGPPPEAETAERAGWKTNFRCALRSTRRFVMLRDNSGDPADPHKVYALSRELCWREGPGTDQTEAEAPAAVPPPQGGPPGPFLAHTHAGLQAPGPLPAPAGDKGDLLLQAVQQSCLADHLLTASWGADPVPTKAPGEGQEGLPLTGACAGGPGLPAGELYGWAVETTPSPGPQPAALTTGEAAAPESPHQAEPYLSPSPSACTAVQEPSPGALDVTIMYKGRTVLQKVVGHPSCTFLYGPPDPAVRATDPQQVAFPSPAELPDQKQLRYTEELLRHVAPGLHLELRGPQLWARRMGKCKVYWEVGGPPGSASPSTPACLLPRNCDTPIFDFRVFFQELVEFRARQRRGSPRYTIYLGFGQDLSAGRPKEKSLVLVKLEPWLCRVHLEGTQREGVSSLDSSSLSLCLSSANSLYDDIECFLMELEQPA
Method: protein-binding microarray
Form: double-stranded DNA, one strand shown
Sample: in vitro
Concentration: 250 nM
Notes: 60-bp whole probe
Together with: salmon DNA 0.4 mg/ml
Baseline: random background probes
Reading: higher = stronger binding
Constant ends, left off below: GCCTAGCAC … GTCTTGATTCGCTTGACGCTGCTG
For `GCCGAACTGAGTTTCGAGACGTGCTAG`, the log fluorescence was 3.52 z-score.
With `GTCGGTTTCGGTATCGGGACGTGCTAG` the log fluorescence was 11.1 z-score.
`GACGGTTTCGACTATCGGGACGTGCTA` gave a log fluorescence of 5.25 z-score.
With `GACCGTCTCCTTATCCTGACGTGCTAG` the log fluorescence was 0.503 z-score.
For `TTAGATTTCAGTTCCGATTCGTGCTAG`, the log fluorescence was 3.75 z-score.
`TCATGTCTGGGTCTTGGACTGTGCTAG` has a log fluorescence of -0.31 z-score.
`TCAAACTTCGGCCTCTAACTGTGCTAG` gave a log fluorescence of -0.317 z-score.
The log fluorescence of `TTAGGTATCGACTTTCGATTAGTGCTA` is reported as 3.42 z-score.

For quick reference, copied from above (series 5):
With `Cc1ccccc1C(=O)Nc1ccc(C(=O)N2CCCC(N(C)C)c3ccccc32)cc1` (centres unmarked) the inhibition was -3.7%.
`O=c1c2ccccc2oc2ccccc12` has an inhibition of -10.7%.
`COC(=O)N[C@@H](C)CNc1nccc(-c2cn(C(C)C)nc2-c2cc(Cl)cc(NS(C)(=O)=O)c2F)n1` gave an inhibition of -1.32%.
`CC(C)CCC[C@@H](C)[C@H]1CC[C@H]2[C@@H]3CCC4=CC(=NO)CC[C@]4(C)[C@H]3CC[C@]12C` has an inhibition of 1.27%.
For `O=C(Nc1nc(-c2cc(Cl)cs2)c(N2CCN(C3CCCCC3)CC2)s1)c1cnc(N2CCC(C(=O)O)CC2)c(Cl)c1`, the inhibition was 1.2%.
